Results from different studies.
Protocols differ between the studies behind these lines. Several values in a cell are separate wells, animals, samples, runs or records. ± gives the spread as reported.

Structure (SMILES)	test	system	conditions	scale	quantity	result
COC(=O)Nc1cc(C(=O)Nc2ccc(CN)cc2)cc2ccc(C(=N)N)cc12	–	octanol/buffer	pH 11, urokinase ligand set	–	logP	0.69
CCc1cc(C(=O)NC)c2nccc(N3CCc4c(cc(Cn5ccnc5)cc4-c4cn(C)nc4C(F)(F)F)C3=O)c2c1	–	Sprague Dawley rats	oral, 50 mg/kg once daily, 7 days	–	serum ALP activity	408 ± 74.2 U/L
Cc1cc([C@H]2C[C@H]3[C@@H](CF)SC(N)=N[C@@]3(c3ccc(F)cc3F)CO2)on1	–	male 129/SVE wild-type mouse, brain	subcutaneous, 100 mg/kg, 9 h	–	brain concentration	44 nM
N#Cc1ccc2c(c1)[C@H]1CCCN(C(=O)c3ccc4[nH]cnc4c3)[C@H]1C2	–	human	20 mg, end of trial	relative to: baseline	ACTH level change	-0.1 pmol/L
N#C[C@@]1(c2ccc3c(N)ncnn23)O[C@H](CO)[C@@H](O)[C@H]1O	–	male beagle dogs, plasma	oral solution, 5 mg/kg	–	lag time	0 h
FC(F)(F)c1ccc(CNc2ccc(Cc3c[nH]c4ncc(Cl)cc34)cn2)cn1	refers to: Diarrhoea	patients with advanced solid tumours	oral, dose not given, all grades, possibly related to drug	–	adverse event incidence	30%
N=C(N)NC(=O)c1nc(Cl)c(NCc2cc(Cl)cc(Cl)c2)nc1N	–	octanol/buffer	pH 11, urokinase ligand set	–	logP	3.62
CO[C@H]1/C=C/O[C@@]2(C)Oc3c(C)c(O)c4c(O)c(c(/C=N/N5CCN(C)CC5)c(O)c4c3C2=O)NC(=O)/C(C)=C\C=C\[C@H](C)[C@H](O)[C@@H](C)[C@@H](O)[C@@H](C)[C@H](OC(C)=O)[C@@H]1C	–	healthy humans	oral, dose not given	–	adverse event Dizziness	8.3%
C=CC(=O)NC1CCN(c2ncc3ncnc(Nc4ccc(Oc5ccc6c(c5)ncn6C)c(C)c4)c3n2)CC1	refers to: muscle twitching	human male	oral, dose not given, AEs, treatment-related, on drug, CTCAE	–	adverse events incidence	0%
CNC(=O)c1cc(Oc2ccc(NC(=O)Nc3ccc(Cl)c(C(F)(F)F)c3)cc2)ccn1	–	NOD-SCID mouse, serum	ip, 30 mg/kg	–	CRE	0.35 ± 0.19 mg/dL
C[C@@H](O)[C@H](NC(=O)c1ccc(-c2ccccc2)cc1)C(=O)NCC1(C)NC(=O)NC1=O (stereo partly shown)	–	octanol/buffer	pH 11	–	logP	0.15
CNC(=O)c1cc(Oc2ccc(NC(=O)Nc3ccc(Cl)c(C(F)(F)F)c3)c(F)c2)ccn1	–	mouse plasma	25 ng/mL, 6 months, -80 °C	–	long-term stability accuracy	96.2%
CNCc1ccc(-c2[nH]c3cc(F)cc4c3c2CCNC4=O)cc1	–	patients	oral, 600 mg twice daily, grade 2	–	decreased appetite incidence	7.7%
CNc1ccc(-c2nc3ccc(O)cc3s2)cc1 [carbon-11 labelled]	ex vivo biodistribution	B6SJL mouse, normal, liver	intravenous, 30 min	–	SUV	4.08 ± 2.09
O=C(Nc1nc2cccc(-c3ccc(CN4CCS(=O)(=O)CC4)cc3)n2n1)C1CC1	refers to: ear and labyrinth disorders	human rheumatoid arthritis patients	oral, 75 mg once daily, 4 weeks, regardless of relatedness	–	treatment-emergent adverse events	0%
CC(C)(C)c1ccc(O)c(CN(Cc2cc(C(C)(C)C)ccc2O)C2CCC(NC(N)=O)CC2)c1 (stereo not shown)	–	C57BL/6 mouse, male, brain	oral, 10 mg/kg	relative to: oral AUC(0-inf) over intraperitoneal	relative bioavailability	50%
CCc1c(-c2ccccc2)c(-c2ccccc2)nn1-c1ccccc1-c1cccc(OCC(=O)O)c1	–	Sprague-Dawley rat, stomach homogenate	oral, 10 mg/kg, 1 h	–	concentration	6260 ng/mL and 4420 ng/mL
N[C@H]1C(O)O[C@H](CO)[C@@H](O)[C@@H]1O (stereo partly shown)	–	aqueous solution	10 mM, with: glucose	–	osmolality	8 mOsmol/kg
CCO[C@H]1CCN(Cc2c(OC)cc(C)c3[nH]ccc23)[C@H](c2ccc(C(=O)O)cc2)C1	–	PNH patients, active haemolysis	oral, 50 mg, 4 weeks, treatment	–	incidence musculoskeletal chest pain	0%
CCN1/C(=C/C(C)=O)Sc2ccc(F)cc21	–	cynomolgus monkey	oral, 100 mg/kg, 4 h post-dose	relative to: pre-dose	systolic blood pressure change	102 ± 3.9%

Structure (SMILES)	test	system	conditions	scale	quantity	result
Cc1ccc(Sc2ccccc2N2CCNCC2)c(C)c1	refers to: haemoglobin decreased	healthy adult women	oral, 5 mg daily, 12 days	–	participants with TEAE	0%
Cc1cc(-c2nccc3c2ccn3CC(=O)Nc2ccc(-c3cnccn3)cn2)ccn1	refers to: AUCtau	human, plasma	oral, 15 mg once daily	relative to: day 16 over day 1	accumulation ratio	1.69
CCCCCCCC[C@H](NC(=O)[C@@H]1C[C@H](C)CN1C(=O)/C=C/[C@@H](C)CC)C(=O)N[C@H](C(=O)NC(C)(C)C(=O)N[C@@H](CC(C)C)C(=O)N[C@@H](CC(C)C)C(=O)NC(C)(C)C(=O)NC(C)(C)C(=O)NCCC(=O)N[C@@H](C)CN(C)C)[C@H](O)C(C)C	circular dichroism	phosphate buffer	pH 7.4, 20 °C	–	alpha-helix content	97.5%
NC1(C(=O)N[C@@H](CCO)c2ccc(Cl)cc2)CCN(c2nc[nH]c3nccc2-3)CC1	–	metastatic CRPC patients	400 mg b.i.d., any grade, treatment-related, with: enzalutamide 160 mg daily	–	incidence of Diarrhoea	57.1%
CC(C)(C(=O)N1CCOc2c(C#N)cncc2C1)C(F)F	refers to: Vascular disorders	human	oral, 20 mg twice daily, 14 days, multiple ascending dose	–	subjects with adverse event	0%
Cc1cc(NC2CCN(C(=O)OC3CCN(C(=O)/C=C/CN(C)C)C3)CC2)n2ncc(C(C)C)c2n1 (stereo not shown)	–	patients with advanced solid tumours	dose not given, QD arm, any grade	–	patients with Arthralgia	12%
O=S(=O)(O)Oc1cccc(O)c1O	–	human, cerebrospinal fluid	concentration not given, mean	–	CSF concentration	3.8 nM
COc1cc(C(=O)N2CCC3(CC2)CC(=O)c2c(cnn2C(C)C)C3)cc(-c2ccc(C(=O)O)cc2)n1	refers to: direct LDL cholesterol	human, fasting serum	100 mg every 12 h, day 13, adjusted geometric mean	relative to: baseline and placebo	placebo-adjusted change from baseline	-7.2%
C=CC(=O)N1CCC(c2ccc(C(N)=O)c(-c3ccc(Oc4ccccc4)cc3)n2)CC1	serious adverse event Dizziness	patients with relapsed/refractory MCL	oral	–	incidence	0.9%
Cc1ccc([C@@H]2O[C@H](CO)[C@@H](O)[C@H](O)[C@H]2O)cc1Cc1ccc(-c2ccc(F)cc2)s1	–	Japanese type 2 diabetes patients	100 mg, day 16, 24 h urine collection	relative to: baseline	urinary magnesium excretion change	16.5 mg
Cn1c(C(F)(F)F)cc(=O)n(-c2cc(Oc3cccnc3OCC(=O)O)c(Cl)cc2F)c1=O	–	Crl:CD1(ICR) mice, female, plasma	oral diet, 100 ppm in diet, day 1, 90-day toxicity study	–	Cmax	647 ng/mL
CCN1CCN(Cc2ccc(NC(=O)c3ccc(C)c(NC(=O)c4cncc(-c5cccs5)c4)c3)cc2C(F)(F)F)CC1	LC-MS/MS	C57BL/6 mouse, plasma	intraperitoneal, 30 mg/kg single dose, 6 h	–	plasma concentration	101 ng/mL and 192 ng/mL and 219 ng/mL
N#CN1C[C@H](n2nc(-c3ccc(Oc4ccc(Cl)cn4)cc3)c(C(N)=O)c2N)CCC12CC2	–	human, fed, plasma	oral, 600 mg, i=11	–	AUC(0-inf), geometric mean	19000 ng·h/mL
COc1ccc([C@@H](O)c2cc(-c3ncnc4cc(N5CCOCC5)ccc34)c(F)cc2Cl)nn1	–	locally advanced rectal cancer patients	250 mg, with: capecitabine and radiotherapy	–	decreased appetite TEAE incidence	33%
NS(=O)(=O)c1ccc(NN=C2C(=O)Nc3ccc(C(=O)O)cc32)cc1	–	octanol/buffer, 40 mM buffer	pH 11	–	logP	-1.5
O=C(O)CCC(=O)O.[2H]C([2H])([2H])Oc1cc(C)c2[nH]ccc2c1CN1CC[C@@H](C2CC2)C[C@H]1c1ccc(C(=O)O)cc1	–	healthy Chinese subjects	600 mg, single ascending dose	–	TEAE urine leukocyte positive	0%
CCn1cc(C)c2c([C@H](N)c3ccc(C(F)(F)F)nc3)n(C)nc2c1=O	–	rat Sprague-Dawley male, blood	intravenous, 1 mg/kg	–	CLint,u	17.1 mL/min/kg
CNC(=O)c1ccc(-c2cnc3ncc(Cc4ccc5ncccc5c4)n3n2)cc1F	–	Japanese patients	oral, 400 mg, any grade	–	Chills dose reduction/interruption	1%
C[C@H]1O[C@@H](O[C@H]2[C@@H](O)C[C@H](O[C@H]3[C@@H](O)C[C@H](O[C@H]4CC[C@@]5(C)[C@H](CC[C@@H]6[C@@H]5C[C@@H](O)[C@]5(C)[C@@H](C7=CC(=O)OC7)CC[C@]65O)C4)O[C@@H]3C)O[C@@H]2C)C[C@H](O)[C@@H]1O	refers to: vessel puncture site pain	healthy men	oral, dose not given, 8 days, treatment-emergent, crossover trial	–	subjects with adverse event	0%
O=C(O)CCCOc1ccc([18F])cc1-c1cc(-c2ccccc2C(F)(F)F)n(-c2ccccc2)n1	gamma counting	male ddY mice, liver	intravenous, 2.1 MBq, 15 min	–	radioactivity uptake	1.2 ± 0.13 SUV

Structure (SMILES)	test	system	conditions	scale	quantity	result
[O]=[Co].[O]=[Co][O][Co]=[O]	–	Crl:CD(SD) rat female, blood	oral, 734 mg Co/kg/day, 90 days	–	haematocrit	51.3%
C[C@H]1Oc2cc(cnc2N)-c2c(nn(C)c2C#N)CN(C)C(=O)c2ccc(F)cc21	–	human patients, plasma	oral, dose not given, cycle 2 day 1, mean, with: avelumab	–	dose-normalised AUClast	55 ng·h/mL/mg
COc1ccc([N+](=O)[O-])cc1NC(=O)C(C)Oc1ccccc1C (stereo not shown)	–	octanol/buffer	pH 11, known kinase inactives set	–	logP	4.48
C=CC(=O)N(C)CCOc1c(N)ncnc1-c1cc(F)cc(NC(=O)c2ccc(C3CC3)cc2F)c1C	–	human, plasma	oral, 60 mg single dose	–	AUC	206 ng·h/mL
Cc1cc(C)c(CNC(=O)c2cc(Cl)c3c(c2C)O[C@@](C)([C@H]2CC[C@H](N(C)C)CC2)O3)c(=O)[nH]1	refers to: Anemia	human patients	oral, 200 mg once daily, 1 day onset day 14	–	patients with grade ≥3 TEAE	4.2%
CNC(=O)c1ccc(-c2cnc3ncc(Cc4ccc5ncccc5c4)n3n2)cc1F	–	HCC patients	oral, 600 mg twice daily, all grades RP2D expansion	–	ALT increased incidence	27%
CCn1cc(C(=O)N2CCOCC2)c(=O)c2cc(NC3Cc4ccccc4C3)cnc21	–	human, fed	oral suspension, 300 mg/day twice daily, day 8, arithmetic mean	–	half-life	5.49 h
Cc1ccc(C)c(OCCCC(C)(C)C(=O)O)c1	–	human, plasma	oral, dose not given, day 11 predose, mean	–	trough plasma concentration	1700 ng/mL
Cl.[2H]C([2H])([2H])CC(=O)c1cnc(NC(=O)C2CC2)cc1Nc1cccc(-c2ncn(C([2H])([2H])[2H])n2)c1OC	–	human, fed	oral, 25 mg, single dose, liquid formulation, geometric mean	–	AUC(0-24 h)	1550 ng·h/mL
CCC(=O)N(CCC(c1ccc2c(c1)OCO2)c1ccccc1OC)Cc1ccccc1 (stereo not shown)	–	female athymic nude mouse, blood	i.p., 60 mg/kg twice daily, 14 days, group mean	–	RDW-SD	28.5 fL
O=C(Nc1cc(C2CCCCC2)[nH]n1)c1ccc(Br)cc1	–	octanol/buffer	pH 11	–	logP	4.64
CCCn1cc(C)c2c(=O)[nH]c(-c3cc(S(=O)(=O)N4CCN(CC)CC4)ccc3OCC)nc21	–	human	concentration not given	–	priapism incidence	61.1%
Nc1ccn([C@@H]2CS[C@H](CO)O2)c(=O)n1	–	Tat- transgenic mouse, striatum	subcutaneous osmotic pump, dose not given, 5 d	–	drug concentration	25900 ± 3500 ng/g
C=CC(=O)NC1CCN(c2ncc3ncnc(Nc4ccc(Oc5ccc6c(c5)ncn6C)c(C)c4)c3n2)CC1	–	human, male, plasma	oral, 30 mg, fed and fasted	up to	time quantifiable in plasma	≤ 118 h
Cc1nonc1OCCNc1cc(N2CCOCC2)ccc1[N+](=O)[O-]	–	octanol/buffer	pH 11, known kinase inactives set	–	logP	2.86
CC1(C)CCC(CN2CCN(c3ccc(C(=O)NS(=O)(=O)c4ccc(NCC5CCOCC5)c([N+](=O)[O-])c4)c(Oc4cnc5[nH]ccc5c4)c3)CC2)=C(c2ccc(Cl)cc2)C1	UPLC-MS/MS	patients on VA-based chemotherapy	oral, dose not given, 6 h, with: triazole antifungals	–	dose-normalised C6 (C6/D)	0.368 ± 0.215
CC(C)n1c(Nc2cccnc2)nc2cnc(Nc3ccc(N4CCN(C)CC4)cc3)nc21	refers to: oral ulcers	healthy male subjects	oral, 100 mg, study, with: itraconazole	–	subjects with adverse event	28.6%
CC1=C(c2cccc(O)c2)[C@H](c2ccc(OCCN3CC(CF)C3)cc2)Oc2ccc(O)cc21	–	human, plasma	oral, 600 mg single dose, geometric mean	–	AUC(0-24 h)	648 ng·h/mL

Excerpt of the above:
Structure (SMILES)	test	system	conditions	scale	quantity	result
O=S(=O)(O)Oc1cccc(O)c1O	–	human, cerebrospinal fluid	concentration not given, mean	–	CSF concentration	3.8 nM
Cn1c(C(F)(F)F)cc(=O)n(-c2cc(Oc3cccnc3OCC(=O)O)c(Cl)cc2F)c1=O	–	Crl:CD1(ICR) mice, female, plasma	oral diet, 100 ppm in diet, day 1, 90-day toxicity study	–	Cmax	647 ng/mL
CCN1/C(=C/C(C)=O)Sc2ccc(F)cc21	–	cynomolgus monkey	oral, 100 mg/kg, 4 h post-dose	relative to: pre-dose	systolic blood pressure change	102 ± 3.9%
C[C@H]1Oc2cc(cnc2N)-c2c(nn(C)c2C#N)CN(C)C(=O)c2ccc(F)cc21	–	human patients, plasma	oral, dose not given, cycle 2 day 1, mean, with: avelumab	–	dose-normalised AUClast	55 ng·h/mL/mg
CNCc1ccc(-c2[nH]c3cc(F)cc4c3c2CCNC4=O)cc1	–	patients	oral, 600 mg twice daily, grade 2	–	decreased appetite incidence	7.7%
Cc1cc(NC2CCN(C(=O)OC3CCN(C(=O)/C=C/CN(C)C)C3)CC2)n2ncc(C(C)C)c2n1 (stereo not shown)	–	patients with advanced solid tumours	dose not given, QD arm, any grade	–	patients with Arthralgia	12%
